Results from different studies.
A part holds a random share of what one study measured. Positions count from the first letter of the parent shown.

Series 1
Target: CCNB3, cyclin fold, Cln2 fusion (human)
Technique: yeast growth competition, sequencing
Sample: yeast
Setting: weak parent motif
Reference: not given
Reading: higher = stronger binding
Starting sequence: PKN2 docking peptide (human); VSAVQKLDFSDTM
| Substitution | normalised enrichment score |
| --- | --- |
| VSTVQKLDFSDTM [A3T] | 0.139 |
| VSAVAKADFSDTM [Q5A L7A] | 0.112 |
| VSAVQKLDCSDTM [F9C] | 0.064 |
| VSSVQKLDFSDTM [A3S] | 0.109 |

Series 2
Target: Fragile X messenger ribonucleoprotein 1, C-terminal low-complexity region (Fmr1, Mus musculus, UniProt P35922)
Technique: RNA Bind-n-Seq
Molecule type: RNA
Sample: in vitro
Tested at: 200 nM
Setting: whole 134-nt RNA, ends assumed
Together with: 150 mM KCl
Reference: input library
Reading: higher = stronger binding
| Strand | log2 enrichment |
| --- | --- |
| GGGAGUUCUACAGUCCGACGAUCACCAUGCAGGUGGGCAUCUUUGGGAAGUGGGGCAAGGGGGGGAUAGGGAGGGGGGUAACACUUUGGGAACAAGUGGUCCCAGGUCGUUUCUGGAAUUCUCGGGUGUCAAGG | 0.865 |
| GGGAGUUCUACAGUCCGACGAUCUUAGGCACUUGUUGGGCUCAUCACCGUUGUGUGGAGUGGUCACUAGGAGUAUGCCAGAUGGAAGAACCAUUGUUAGUGAACGUGGACAAAUGGAAUUCUCGGGUGUCAAGG | -1.89 |
| GGGAGUUCUACAGUCCGACGAUCCCUCAAGUCCUGUGCUACACAUCGUAUGUACCGAAUCGGUGGUUUGGAAAGGAAAGUAUUAUGUUACGCCGUUCGGAUCUGCACUUCCAGUGGAAUUCUCGGGUGUCAAGG | 0.185 |
| GGGAGUUCUACAGUCCGACGAUCAGUCCUGUGCUACACAUCGUAUGUACCGAAUCGGGUUUUGGGGUUUUGGGUUUUGGGGAAAGUAUUAUGUUACGCCGUUCGGAUCUGCACUGGAAUUCUCGGGUGUCAAGG | 0.661 |

Series 3
Target: Interferon regulatory factor 5, full length, phosphomimetic (IRF5, Homo sapiens, UniProt Q13568-2, residues 1-514, S451D/S453D/S456D/S462D)
Technique: protein-binding microarray
Molecule type: double-stranded DNA, one strand shown
Sample: in vitro
Tested at: 940 nM top
Setting: 60-bp whole probe
Together with: salmon DNA 0.4 mg/ml
Reference: random background probes
Reading: higher = stronger binding
Shared flanks, not repeated: GCCTAGCAC … GTCTTGATTCGCTTGACGCTGCTG
| Strand | fitted relative affinity |
| --- | --- |
| TACTTTCTACGTCTGATTTTGTGCTAG | 2.53 z-score |
| TCACTTCTCCCTTTCAGACTGTGCTAG | 0.988 z-score |
| GACGGTTTAGGTATCGGGACGTGCTAG | 2.14 z-score |
| TTAGATATCAGTATCGATTAGTGCTAG | 4.53 z-score |
| TTAGGTATCGAATTTCGGTTAGTGCTA | 3.75 z-score |
| TTAGGACTGGGAACTGGGTTAGTGCTA | -0.45 z-score |

Other studies, line by line
| Molecule | target | test | test system | setting | how to read | endpoint | result |
| --- | --- | --- | --- | --- | --- | --- | --- |
| PhoQ, residues 284 288 289 292 302 303 TGYLSA | PhoP, residues 12 14 15 18 19 IQSYL (Escherichia coli, UniProt P23836) | Sort-seq, refers to: YFP reporter | E. coli | PhoQ-PhoP variant library, together with: 10 µM Mg2+ | reference: high Mg2+ state, higher = stronger signaling | fold induction | 5.16 |

A few entries again (series 1):
| Substitution | normalised enrichment score |
| --- | --- |
| VSAVQKLDCSDTM [F9C] | 0.064 |
